Experimental data from different studies.
Values joined by “and” are separate records of one study, mostly repeats; a detail may differ. ± gives the spread as reported.
MAL12: Alpha-glucosidase MAL12 (MAL12, Saccharomyces cerevisiae S288c, UniProt P53341)
UniProt P53341, sequence (whole entry, looked up): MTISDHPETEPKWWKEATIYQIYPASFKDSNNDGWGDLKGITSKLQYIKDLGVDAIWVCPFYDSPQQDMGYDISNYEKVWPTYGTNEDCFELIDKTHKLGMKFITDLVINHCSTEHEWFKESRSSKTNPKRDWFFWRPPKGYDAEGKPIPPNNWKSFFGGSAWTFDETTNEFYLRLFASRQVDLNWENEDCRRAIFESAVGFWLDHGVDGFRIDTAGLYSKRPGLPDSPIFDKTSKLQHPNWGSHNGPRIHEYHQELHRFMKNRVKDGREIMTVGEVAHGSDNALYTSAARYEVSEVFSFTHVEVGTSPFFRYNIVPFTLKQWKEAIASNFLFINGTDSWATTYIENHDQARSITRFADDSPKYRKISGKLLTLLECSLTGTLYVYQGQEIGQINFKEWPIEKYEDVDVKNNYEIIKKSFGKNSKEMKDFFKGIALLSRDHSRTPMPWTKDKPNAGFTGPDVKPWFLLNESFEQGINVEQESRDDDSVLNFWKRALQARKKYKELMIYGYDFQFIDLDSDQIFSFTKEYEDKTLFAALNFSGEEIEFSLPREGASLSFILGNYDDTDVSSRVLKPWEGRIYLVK
DRD5: D(1B) dopamine receptor (DRD5, Homo sapiens, UniProt P21918)
UniProt P21918, sequence (whole entry, looked up): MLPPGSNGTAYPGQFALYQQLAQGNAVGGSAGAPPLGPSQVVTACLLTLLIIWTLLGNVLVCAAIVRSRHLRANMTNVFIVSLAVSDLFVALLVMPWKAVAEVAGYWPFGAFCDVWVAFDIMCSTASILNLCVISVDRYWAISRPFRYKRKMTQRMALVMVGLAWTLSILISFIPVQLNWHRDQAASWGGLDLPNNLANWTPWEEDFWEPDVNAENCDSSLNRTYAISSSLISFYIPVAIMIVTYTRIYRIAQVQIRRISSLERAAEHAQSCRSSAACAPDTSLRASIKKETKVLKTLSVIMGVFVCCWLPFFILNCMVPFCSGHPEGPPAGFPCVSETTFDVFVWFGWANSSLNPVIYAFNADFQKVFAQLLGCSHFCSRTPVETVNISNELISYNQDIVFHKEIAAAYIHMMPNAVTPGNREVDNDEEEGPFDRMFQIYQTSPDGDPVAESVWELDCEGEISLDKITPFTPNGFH
Urease subunit alpha: Urease subunit alpha (Sporosarcina pasteurii, UniProt P41020)
UniProt P41020, sequence (whole entry, looked up): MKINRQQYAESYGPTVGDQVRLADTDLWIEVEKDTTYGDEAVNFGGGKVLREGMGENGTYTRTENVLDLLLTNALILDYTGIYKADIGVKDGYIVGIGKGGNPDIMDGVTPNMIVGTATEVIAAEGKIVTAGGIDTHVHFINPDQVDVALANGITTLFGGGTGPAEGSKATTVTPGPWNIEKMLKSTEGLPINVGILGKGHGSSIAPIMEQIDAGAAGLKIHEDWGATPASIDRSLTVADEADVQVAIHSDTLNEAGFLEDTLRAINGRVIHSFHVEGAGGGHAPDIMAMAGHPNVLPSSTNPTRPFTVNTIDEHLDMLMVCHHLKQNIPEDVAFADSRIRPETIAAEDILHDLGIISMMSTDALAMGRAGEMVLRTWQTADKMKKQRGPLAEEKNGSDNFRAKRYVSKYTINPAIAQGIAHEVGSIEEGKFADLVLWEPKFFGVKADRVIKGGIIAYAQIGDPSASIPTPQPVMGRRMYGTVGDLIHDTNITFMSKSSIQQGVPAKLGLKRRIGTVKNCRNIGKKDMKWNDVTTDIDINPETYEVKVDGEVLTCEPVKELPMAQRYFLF
HTR1A: 5-hydroxytryptamine receptor 1A (HTR1A, Homo sapiens, UniProt P08908)
UniProt P08908, sequence (whole entry, looked up): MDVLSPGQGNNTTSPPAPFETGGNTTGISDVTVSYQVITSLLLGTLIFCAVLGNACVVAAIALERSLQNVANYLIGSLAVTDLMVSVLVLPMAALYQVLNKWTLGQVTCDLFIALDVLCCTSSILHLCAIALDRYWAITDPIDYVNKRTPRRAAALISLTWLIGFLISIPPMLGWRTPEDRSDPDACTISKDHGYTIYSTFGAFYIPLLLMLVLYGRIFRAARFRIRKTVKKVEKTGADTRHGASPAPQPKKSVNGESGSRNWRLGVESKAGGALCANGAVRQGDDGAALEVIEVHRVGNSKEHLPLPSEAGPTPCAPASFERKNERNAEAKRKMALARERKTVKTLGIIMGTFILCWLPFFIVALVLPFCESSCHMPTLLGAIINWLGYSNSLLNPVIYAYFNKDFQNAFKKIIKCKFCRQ
UniProt O35240, sequence (whole entry, looked up): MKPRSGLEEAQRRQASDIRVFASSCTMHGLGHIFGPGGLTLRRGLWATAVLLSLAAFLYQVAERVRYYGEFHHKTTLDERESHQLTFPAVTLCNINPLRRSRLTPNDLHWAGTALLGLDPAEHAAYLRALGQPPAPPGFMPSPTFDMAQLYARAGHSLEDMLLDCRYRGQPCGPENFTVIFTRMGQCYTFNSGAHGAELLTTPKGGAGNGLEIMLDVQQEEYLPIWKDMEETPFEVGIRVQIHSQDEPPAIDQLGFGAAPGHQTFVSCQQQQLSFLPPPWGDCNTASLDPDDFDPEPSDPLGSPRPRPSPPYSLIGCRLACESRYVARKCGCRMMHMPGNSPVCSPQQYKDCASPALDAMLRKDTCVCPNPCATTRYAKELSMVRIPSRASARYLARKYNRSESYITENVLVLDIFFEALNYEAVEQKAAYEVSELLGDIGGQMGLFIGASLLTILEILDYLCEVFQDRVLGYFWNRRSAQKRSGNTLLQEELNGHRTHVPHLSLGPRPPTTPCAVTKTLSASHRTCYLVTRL
UniProt Q8IWT6, sequence (whole entry, unmodified, looked up): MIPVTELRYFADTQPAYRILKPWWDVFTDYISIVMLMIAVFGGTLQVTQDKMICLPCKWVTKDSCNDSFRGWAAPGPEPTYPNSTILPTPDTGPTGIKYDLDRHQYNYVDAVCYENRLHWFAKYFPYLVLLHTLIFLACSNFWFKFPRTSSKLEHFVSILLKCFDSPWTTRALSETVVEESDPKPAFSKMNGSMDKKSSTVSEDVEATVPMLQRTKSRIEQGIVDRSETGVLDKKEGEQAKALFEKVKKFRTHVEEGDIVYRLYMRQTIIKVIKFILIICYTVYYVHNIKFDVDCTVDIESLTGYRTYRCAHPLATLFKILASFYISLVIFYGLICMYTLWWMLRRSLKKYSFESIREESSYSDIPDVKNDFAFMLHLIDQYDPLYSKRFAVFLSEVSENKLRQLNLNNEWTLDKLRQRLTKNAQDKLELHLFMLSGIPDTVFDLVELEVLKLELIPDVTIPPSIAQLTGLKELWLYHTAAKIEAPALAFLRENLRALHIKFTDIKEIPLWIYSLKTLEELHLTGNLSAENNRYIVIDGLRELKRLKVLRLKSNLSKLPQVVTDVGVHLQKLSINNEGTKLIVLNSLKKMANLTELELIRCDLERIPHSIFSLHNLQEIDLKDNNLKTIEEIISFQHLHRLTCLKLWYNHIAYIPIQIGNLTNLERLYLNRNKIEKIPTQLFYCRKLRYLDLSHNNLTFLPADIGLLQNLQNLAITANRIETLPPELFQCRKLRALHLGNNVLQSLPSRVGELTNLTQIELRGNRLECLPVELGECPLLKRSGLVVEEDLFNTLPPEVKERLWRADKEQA
UniProt P08913, sequence (whole entry, looked up): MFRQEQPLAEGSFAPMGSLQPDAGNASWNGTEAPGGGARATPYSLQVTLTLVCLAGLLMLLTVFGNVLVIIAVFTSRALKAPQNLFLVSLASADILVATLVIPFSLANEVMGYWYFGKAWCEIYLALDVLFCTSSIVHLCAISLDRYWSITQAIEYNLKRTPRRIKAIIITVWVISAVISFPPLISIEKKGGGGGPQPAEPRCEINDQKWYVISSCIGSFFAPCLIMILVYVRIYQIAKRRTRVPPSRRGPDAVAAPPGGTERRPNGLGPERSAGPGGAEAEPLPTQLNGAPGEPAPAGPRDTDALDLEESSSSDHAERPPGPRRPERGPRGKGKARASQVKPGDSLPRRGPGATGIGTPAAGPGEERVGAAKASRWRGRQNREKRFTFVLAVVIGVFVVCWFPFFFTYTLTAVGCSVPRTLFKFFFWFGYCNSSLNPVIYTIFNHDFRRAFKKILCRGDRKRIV
UniProt Q8N884, sequence (whole entry, looked up): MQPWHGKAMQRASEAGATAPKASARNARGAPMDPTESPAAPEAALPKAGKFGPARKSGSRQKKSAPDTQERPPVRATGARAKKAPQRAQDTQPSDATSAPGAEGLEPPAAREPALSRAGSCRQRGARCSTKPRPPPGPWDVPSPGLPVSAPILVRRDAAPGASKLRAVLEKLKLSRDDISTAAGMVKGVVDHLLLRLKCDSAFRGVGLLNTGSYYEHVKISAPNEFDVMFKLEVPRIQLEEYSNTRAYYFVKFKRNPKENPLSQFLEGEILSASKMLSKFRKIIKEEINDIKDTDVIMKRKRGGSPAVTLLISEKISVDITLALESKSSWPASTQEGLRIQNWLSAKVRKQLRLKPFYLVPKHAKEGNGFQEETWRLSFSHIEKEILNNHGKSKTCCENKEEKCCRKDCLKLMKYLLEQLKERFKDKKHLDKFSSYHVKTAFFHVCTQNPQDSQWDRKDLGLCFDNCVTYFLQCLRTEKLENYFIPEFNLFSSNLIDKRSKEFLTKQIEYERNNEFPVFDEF
UniProt Q7RTT9, sequence (whole entry, looked up): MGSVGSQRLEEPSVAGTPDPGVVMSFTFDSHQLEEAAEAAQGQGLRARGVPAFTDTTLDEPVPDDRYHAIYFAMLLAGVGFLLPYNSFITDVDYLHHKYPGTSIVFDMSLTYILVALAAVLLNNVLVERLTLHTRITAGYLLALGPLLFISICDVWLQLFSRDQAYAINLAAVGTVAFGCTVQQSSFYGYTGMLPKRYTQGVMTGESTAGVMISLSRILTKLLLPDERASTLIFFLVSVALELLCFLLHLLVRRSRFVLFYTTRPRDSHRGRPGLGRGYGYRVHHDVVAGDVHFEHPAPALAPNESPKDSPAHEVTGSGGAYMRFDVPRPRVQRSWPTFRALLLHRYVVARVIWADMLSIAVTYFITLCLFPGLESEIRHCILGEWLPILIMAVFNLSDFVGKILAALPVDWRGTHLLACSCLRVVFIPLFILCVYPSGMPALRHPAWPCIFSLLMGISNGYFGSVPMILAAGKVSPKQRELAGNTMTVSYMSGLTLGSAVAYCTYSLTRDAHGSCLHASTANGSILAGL

For `COc1ccc(-c2c(C)oc3c(Cn4ccnc4)c(O)ccc3c2=O)cc1`, the inhibition was 12.8% (MAL12; inhibitor; 25 µM).
With `Cc1cc2c(cc1N1C(=O)c3cccc4c(CCCO)ccc(c34)C1=O)n(C)c(=O)n2C` (racemic) the inhibition was 0% (BRD1 (Homo sapiens, UniProt O95696); binding, BROMOscan binding; 1000 nM).
The inhibition of `COc1ccccc1N1CCN(CCCCN2CCc3ccccc3C2=O)CC1` is reported as 57.1% (DRD5; radioligand binding; concentration not given, added: [3H]SCH23390).
For `COc1ccc2[nH]c3c(c2c1)[C@H]1C[C@@H]([C@H]3C)N(Cc2ccccc2)C[C@]1(C)O`, the inhibition was 0% (Mu-type opioid receptor (Cavia porcellus, UniProt A0ACM8Q262); binding, radioligand binding; guinea pig brain membranes; 1 µM, added: [3H]DAMGO).
`Cc1ccc(NC(=S)N/N=C/C=C/c2ccc(F)cc2)cc1` gave an inhibition of 84.9% (Urease subunit alpha; enzyme activity, indophenol method; 500 µM).
With `Cc1cc(-c2ccnc3[nH]cc(F)c23)cc(F)c1[C@@]1(O)[C@H](C)CN(C(=O)CN)C[C@@H]1C` the inhibition was -10.7% (AKT1 and AKT3; ATP probe binding, KiNativ, refers to: Lys1 site; HEK293T cell lysate; 0.1 µM).
With `Cc1ncc([N+](=O)[O-])n1C(=NO)c1ccccc1C(F)(F)F` the inhibition was 15.2% (CHKtide kinase; 10 µM).
The inhibition of `COc1ccc(F)cc1C(=O)NCc1ccc(-c2nn([C@@H](C)C(F)(F)F)c(N)c2C(N)=O)cc1` is reported as 45.4% (BTK (Homo sapiens, UniProt Q06187); probe binding, competitive chemoproteomics; human PBMCs; 0.01 µM).
The inhibition of `c1cncc(OC[C@H]2CN(CCN3CCc4ccccc43)CCO2)c1` is reported as 24.1% (HTR1A; radioligand binding; concentration not given, added: [3H]8-OH-DPAT).
`CN(C(=O)n1cnc(-c2ccc[n+]([O-])c2)c1)C1CCCCC1` has an inhibition of 8.01% (TACR2 (Homo sapiens, UniProt P21452); 10 µM).
With `COc1cc(-c2cc(C(C)=O)n3ccccc23)cc(OC)c1Cn1ccnc1` the inhibition was -14.1% (Bromodomain testis-specific protein, BD1 (BRDT, Homo sapiens, UniProt Q58F21); 1 µM).
With `CCc1oc2ccccc2c1C(=O)c1cc(Br)c(O)c(Br)c1` the inhibition was 42% (SLC22A12 (Homo sapiens, UniProt Q96S37, M214A); uric acid uptake; HEK293T transfected with SLC22A12 M214A; 0.5 µM, 10 min, 37 °C, mean, added: [14C]urate 200 µM).
For `O=C(NO)c1ccc(CN2CCCCc3ccccc32)c(F)c1`, the inhibition was 27.1% (ADRA2A (Homo sapiens, UniProt P08913); radioligand binding, PDSP radioligand binding; 10 µM).
`O=C(O)C[C@H](O)C[C@H](O)/C=C/c1c(C2CC2)nc2ccccc2c1-c1ccc(F)cc1` gave an apoptotic cells of 1.13 ± 0.17 (COS-7; 10 µM, 24 h, 0.1% DMSO, unit not given; baseline: vehicle control).
For `COc1cc2c(c(O)c1OC)C(=O)c1c(cc(C)c(O[C@@H]3O[C@H](CO)[C@@H](O)[C@H](O)[C@H]3O)c1OC)C2=O`, the cell viability was 60.2 ± 9% (HepaRG co-cultured with HK-2; MTT; 133.33 µM, 24 h; baseline: untreated control).
Under inhibition, `CCN(CC)C(=S)SSC(=S)N(CC)CC` is recorded as “inhibited” (PTPN22 (Homo sapiens, UniProt Q9Y2R2); inhibitor, immunoblot; up to 75 µM, 2 min).
For `c1ccc(OC[C@@H]2CN(CCN3CCc4ccccc43)CCO2)cc1`, the inhibition was 48.2% (DRD5; radioligand binding; concentration not given, added: [3H]SCH23390).
`CC(C)c1noc2ncc(C(=O)c3ccccc3O)cc12` gave an inhibition of 0.28% and 2.38% and 6.33% and 8.74% (Asic3 (Rattus norvegicus, UniProt O35240); ion current, inhibitor, whole-cell patch clamp; 10 µM).
`O=C1c2ccccc2CCN1CCCCN1CCN(c2ccccn2)CC1` has an inhibition of 31.5% (DRD5; radioligand binding; concentration not given, added: [3H]SCH23390).
`O=C(Nc1cccc2c(=O)cc(-c3nnn[nH]3)oc12)c1ccc(OCCCCc2ccccc2)cc1` has an inhibition of -4.24% and 13.3% and -8.04% and -8.85% and 58.6% and -3.08% (LRRC8A/LRRC8C (Homo sapiens, UniProt Q8IWT6+Q8TDW0, Y124F/Y126F); ion current, whole-cell patch clamp; HCT LRRC8-/- cells; 3 µM, -100 mV, Y124F/Y126F heteromers).
For `Cc1ccc(OC[C@@H]2CN(CCN3CCc4ccccc43)CCO2)cn1`, the inhibition was 30.3% (HTR1A; radioligand binding; concentration not given, added: [3H]8-OH-DPAT).
With `C[C@@H]1CCO[C@H]2Cn3cc(C(=O)NCc4ccc(F)cc4F)c(=O)c(O)c3C(=O)N12` the inhibition was -3.65% (SLC29A4 (Homo sapiens, UniProt Q7RTT9); transport; MDCK-II, transfected; 0.1 µM, added: MPP+ 10 µM).
`Cc1ccnc(C)c1OC[C@H]1CN(CCN2CCc3ccccc32)CCO1` has an inhibition of 27.1% (DRD5; radioligand binding; concentration not given, added: [3H]SCH23390).
For `Cc1nn(-c2nc3ccccc3s2)c(O)c1C(c1ccccc1C(=O)O)c1c(C)nn(-c2nc3ccccc3s2)c1O`, the inhibition was 96.1% (CGAS (Homo sapiens, UniProt Q8N884); enzyme activity, inhibitor, pyrophosphatase-coupled; 50 µM, 1.5 h, added: HT-DNA).
`Cc1cc(-c2ccnc3[nH]cc(F)c23)cc(F)c1[C@@]1(O)[C@H](C)CN(C2CCS(=O)(=O)CC2)C[C@@H]1C` gave an inhibition of 10.8% (AKT2 and AKT3; ATP probe binding, KiNativ, refers to: ATP loop; HEK293T cell lysate; 1 µM).
`Fc1ccc(/C=C/C=N/NC(=S)NCc2ccc(Cl)cc2)cc1` — result for inhibition: “inactive” (Urease subunit alpha; enzyme activity, inhibitor, indophenol method; concentration not given; baseline: thiourea).
Under inhibition, `O=c1oc(-c2ccco2)nc2ccccc12` is recorded as “no inhibition” (F12 (Homo sapiens, UniProt P00748); chromogenic substrate hydrolysis; up to 50 µM).
For `Cn1cc(-c2cnc3ccc(NC(=O)Nc4ccc(F)c(Br)c4)cc3n2)cn1`, the inhibition was 3.3% (IKBKB (Homo sapiens, UniProt O14920); kinase binding, KiNativ profiling, refers to: Lys2 peptide; PANC-1 lysate; 1.25 µM).
`CC[C@@H]1[C@H](F)C(=O)N[C@@H]1COc1nccc2cc(C(N)=O)c(OC)cc12` has an inhibition of 9.6% (MARK4 (Homo sapiens, UniProt Q96L34); ATP-site probe binding, ActivX profiling; THP-1 cell lysate; 0.01 mM, Lys2 site).
For `CCN1CCN(c2cc(N3CCN(CC)CC3)nc(NCCNc3ccnc4cc(Cl)ccc34)n2)CC1`, the confluence was 0.95 ± 0.17 (COS-7; 10 µM, 24 h, 0.1% DMSO, unit not given; baseline: vehicle control).
`COc1ccc2c(c1)C(=O)N(CCN1CCN(c3ccccc3OC)CC1)C2` has an inhibition of 92.4% (HTR1A; radioligand binding; concentration not given, added: [3H]8-OH-DPAT).
The inhibition of `Cc1cc(C)n(Cc2c(O)ccc3c(=O)c(-c4ccc5c(c4)OCO5)coc23)n1` is reported as 14.5% (MAL12; inhibitor; 25 µM).
The cell viability of `O=C1c2cccc(O)c2C(=O)c2c(O)cc(CO)cc21` is reported as 112 ± 9.53% (HepaRG co-cultured with HK-2; MTT; 266.67 µM, 24 h; baseline: untreated control).
For `Clc1cncc(OC[C@@H]2CN(CCN3CCc4ccccc43)CCO2)c1`, the inhibition was 22.4% (HTR1A; radioligand binding; concentration not given, added: [3H]8-OH-DPAT).
`Cc1cccc(C)c1NC(=S)N/N=C/C=C/c1ccc(F)cc1` gave an inhibition of 86.3% (Urease subunit alpha; enzyme activity, indophenol method; 500 µM).

Excerpt of the above:
For `Cc1ccc(OC[C@@H]2CN(CCN3CCc4ccccc43)CCO2)cn1`, the inhibition was 30.3% (HTR1A; radioligand binding; concentration not given, added: [3H]8-OH-DPAT).
With `C[C@@H]1CCO[C@H]2Cn3cc(C(=O)NCc4ccc(F)cc4F)c(=O)c(O)c3C(=O)N12` the inhibition was -3.65% (SLC29A4 (Homo sapiens, UniProt Q7RTT9); transport; MDCK-II, transfected; 0.1 µM, added: MPP+ 10 µM).
`Cc1ccnc(C)c1OC[C@H]1CN(CCN2CCc3ccccc32)CCO1` has an inhibition of 27.1% (DRD5; radioligand binding; concentration not given, added: [3H]SCH23390).
